# Measurements pooled from the literature.
# Each line is one published result; not all experiments were run side by side.
SMILES,organism,assay,system,conditions,quantity,value
CC(C)C[C@@H](NC(=O)[C@H](C)NC(=O)CNC(=O)[C@@H](NC=O)C(C)C)C(=O)N[C@@H](C)C(=O)N[C@@H](C(=O)N[C@H](C(=O)N[C@@H](C(=O)N[C@@H](Cc1c[nH]c2ccccc12)C(=O)N[C@H](CC(C)C)C(=O)N[C@@H](Cc1ccc2cc[nH]c2c1)C(=O)N[C@H](CC(C)C)C(=O)N[C@@H](Cc1c[nH]c2ccccc12)C(=O)N[C@H](CC(C)C)C(=O)N[C@@H](Cc1c[nH]c2ccccc12)C(=O)NCCO)C(C)C)C(C)C)C(C)C,Streptococcus pyogenes,broth microdilution,SSI-9,,MIC,8.3 nM
COc1ccc2cc1Oc1cc(ccc1OC)CCC(N[C@@H]1CCCc3ccccc31)CCCC2 (stereo partly drawn),Streptococcus pyogenes,broth microdilution,ATCC 700294,,MIC,> 100 µg/mL
CCCCCCCCCC(=O)N[C@@H](Cc1c[nH]c2ccccc12)C(=O)N[C@H](CC(N)=O)C(=O)N[C@@H](CC(=O)O)C(=O)N[C@@H]1C(=O)NCC(=O)N[C@@H](CCCN)C(=O)N[C@@H](CC(=O)O)C(=O)N[C@H](C)C(=O)N[C@@H](CC(=O)O)C(=O)NCC(=O)N[C@H](CO)C(=O)N[C@@H]([C@H](C)CC(=O)O)C(=O)N[C@@H](CC(=O)c2ccccc2N)C(=O)O[C@@H]1C,Streptococcus pyogenes,broth microdilution,sensitive clinical isolate,"overnight, 37 °C",MIC,8 µg/mL
C[C@H]1COc2c(N3CCN(C)CC3)c(F)cc3c(=O)c(C(=O)O)cn1c23,Streptococcus pyogenes,,,,MIC90,1 µg/mL
CN[C@H](CC(C)C)C(=O)N[C@H]1C(=O)N[C@@H](CC(N)=O)C(=O)N[C@H]2C(=O)N[C@H]3C(=O)N[C@H](C(=O)N[C@H](C(=O)O)c4cc(O)cc(O)c4-c4cc3ccc4O)[C@H](O)c3ccc(c(Cl)c3)Oc3cc2cc(c3O[C@@H]2O[C@H](CO)[C@@H](O)[C@H](O)[C@H]2O[C@H]2C[C@](C)(N)[C@H](O)[C@H](C)O2)Oc2ccc(cc2Cl)[C@H]1O,Streptococcus pyogenes,,,,MIC,0.25 µg/mL
CCOC(=O)c1ccc(-c2ccc(OC(=O)N(C)Cc3cccc(-c4ccncc4)c3)cc2)cc1,human coronavirus OC43,virus-induced cell killing,MRC-5,screen,maximum inhibition,14.2%
CC[C@H](C)[C@H](NC(=O)[C@H](C)NC(=O)[C@H](CCCCN)NC(=O)[C@H](CC(C)C)NC(=O)[C@H](C)NC(=O)[C@@H](NC(=O)[C@H](Cc1c[nH]cn1)NC(=O)[C@H](CC(C)C)NC(=O)[C@@H](NC(=O)[C@@H](NC(=O)[C@H](CCCCN)NC(=O)[C@H](C)NC(=O)[C@H](C)NC(=O)[C@H](CO)NC(=O)[C@H](CCCCN)NC(=O)[C@H](Cc1ccccc1)NC(=O)[C@@H](NC(=O)[C@H](CCCCN)NC(=O)[C@H](CC(C)C)NC(=O)[C@H](Cc1ccccc1)NC(=O)[C@H](CO)NC(=O)[C@H](CCCCN)NC(=O)[C@H](Cc1c[nH]c2ccccc12)NC(=O)[C@H](CCCCN)NC(C)=O)[C@@H](C)O)[C@@H](C)O)C(C)C)[C@@H](C)O)C(=O)N[C@@H](CO)C(=O)N[C@@H](CO)C(N)=O,Streptococcus pyogenes,,ATCC 19615,1 strain,MIC50,8 µg/mL
C[C@H]1c2cccc(O)c2C(=O)C2=C(O)[C@]3(O)C(=O)C(C(N)=O)=C(O)[C@@H](N(C)C)[C@@H]3[C@@H](O)[C@@H]21,Streptococcus pyogenes,,,,MIC90,8 µg/mL
CC(C)C[C@@H](NC(=O)[C@H](C)NC(=O)CNC(=O)[C@@H](NC=O)C(C)C)C(=O)N[C@@H](C)C(=O)N[C@@H](C(=O)N[C@H](C(=O)N[C@@H](C(=O)N[C@@H](Cc1c[nH]c2ccccc12)C(=O)N[C@H](CC(C)C)C(=O)N[C@@H](Cc1ccc2[nH]ccc2c1)C(=O)N[C@H](CC(C)C)C(=O)N[C@@H](Cc1c[nH]c2ccccc12)C(=O)N[C@@H](C(=O)N[C@@H](Cc1c[nH]c2ccccc12)C(=O)NCCO)C(C)C)[C@H](C)O)C(C)C)C(C)C,Streptococcus pyogenes,broth microdilution,SSI-9,,MIC,33 nM
CCC[C@@H]1C[C@@H](C(=O)N[C@@H]([C@H]2O[C@H](SC)[C@H](O)[C@@H](O)[C@H]2O)[C@H](C)Cl)N(C)C1,Streptococcus pyogenes,,,,MIC90,0.125 µg/mL
CC(C)C[C@@H](NC(=O)[C@H](C)NC(=O)CNC(=O)[C@@H](NC=O)C(C)C)C(=O)N[C@@H](C)C(=O)N[C@@H](C(=O)N[C@H](C(=O)N[C@@H](C(=O)N[C@@H](Cc1c[nH]c2ccccc12)C(=O)N[C@H](CC(C)C)C(=O)N[C@@H](Cc1ccc2[nH]ccc2c1)C(=O)N[C@H](CC(C)C)C(=O)N[C@@H](Cc1c[nH]c2ccccc12)C(=O)N[C@H](CC(C)C)C(=O)N[C@@H](Cc1c[nH]c2ccccc12)C(=O)NCCO)C(C)C)C(C)C)C(C)C,Streptococcus pyogenes,broth microdilution,SSI-9,,MIC,8.3 nM
NS(=O)(=O)NCCNc1nonc1C(=NO)Nc1ccc(F)c(Br)c1,human coronavirus OC43,virus-induced cell killing,MRC-5,screen,maximum inhibition,9.57%
